{"data": "Experimental data from different studies", "note": "Parts stem from different laboratories: compare values within a part only."}
{"data": "Sample 1", "target": "Prothrombin, mature alpha-thrombin (F2, Homo sapiens, UniProt P00734)", "technique": "aptamer microarray, sandwich", "molecule type": "DNA with 2'F-ANA", "matrix": "in vitro", "tested at": "200 nM", "notes": "whole 15-mer aptamer, many near background", "with": "Cy3 exosite-II aptamer, 400 nM", "reading": "higher = stronger binding", "sequence": "GGTTGGTGTGGTTGG"}
{"Modification": "2'F-ANA at 3 4 5 6 8 9 11 12 14 15", "mean fluorescence intensity": "52.2 a.u."}
{"Modification": "2'F-ANA at 1 3 4 6 8 10 13 15", "mean fluorescence intensity": "163 a.u."}
{"Modification": "2'F-ANA at 2 3 4 5 6 7 9 12 13 14", "mean fluorescence intensity": "49.9 a.u."}
{"Modification": "2'F-ANA at 1 3 4 7 9 10", "mean fluorescence intensity": "70 a.u."}
{"Modification": "2'F-ANA at 3 7 8 9 13 14", "mean fluorescence intensity": "684 a.u."}
{"Modification": "2'F-ANA at 2 4 5 6 7 8 11 12 13 14", "mean fluorescence intensity": "47.8 a.u."}
{"Modification": "2'F-ANA at 1 2 4 5 6 7 9 12 13 15", "mean fluorescence intensity": "63.4 a.u."}
{"data": "Sample 2", "target": "Sal-like protein 4, full length isoform A (SALL4, Homo sapiens, UniProt Q9UJQ4, residues 1-1053)", "technique": "universal PBM", "molecule type": "double-stranded DNA, one strand shown", "matrix": "in vitro", "tested at": "600 nM", "notes": "8-mer, flanks averaged, mean of replicates", "reading": "higher = stronger binding", "chain of UniProt Q9UJQ4 (whole entry, looked up)": "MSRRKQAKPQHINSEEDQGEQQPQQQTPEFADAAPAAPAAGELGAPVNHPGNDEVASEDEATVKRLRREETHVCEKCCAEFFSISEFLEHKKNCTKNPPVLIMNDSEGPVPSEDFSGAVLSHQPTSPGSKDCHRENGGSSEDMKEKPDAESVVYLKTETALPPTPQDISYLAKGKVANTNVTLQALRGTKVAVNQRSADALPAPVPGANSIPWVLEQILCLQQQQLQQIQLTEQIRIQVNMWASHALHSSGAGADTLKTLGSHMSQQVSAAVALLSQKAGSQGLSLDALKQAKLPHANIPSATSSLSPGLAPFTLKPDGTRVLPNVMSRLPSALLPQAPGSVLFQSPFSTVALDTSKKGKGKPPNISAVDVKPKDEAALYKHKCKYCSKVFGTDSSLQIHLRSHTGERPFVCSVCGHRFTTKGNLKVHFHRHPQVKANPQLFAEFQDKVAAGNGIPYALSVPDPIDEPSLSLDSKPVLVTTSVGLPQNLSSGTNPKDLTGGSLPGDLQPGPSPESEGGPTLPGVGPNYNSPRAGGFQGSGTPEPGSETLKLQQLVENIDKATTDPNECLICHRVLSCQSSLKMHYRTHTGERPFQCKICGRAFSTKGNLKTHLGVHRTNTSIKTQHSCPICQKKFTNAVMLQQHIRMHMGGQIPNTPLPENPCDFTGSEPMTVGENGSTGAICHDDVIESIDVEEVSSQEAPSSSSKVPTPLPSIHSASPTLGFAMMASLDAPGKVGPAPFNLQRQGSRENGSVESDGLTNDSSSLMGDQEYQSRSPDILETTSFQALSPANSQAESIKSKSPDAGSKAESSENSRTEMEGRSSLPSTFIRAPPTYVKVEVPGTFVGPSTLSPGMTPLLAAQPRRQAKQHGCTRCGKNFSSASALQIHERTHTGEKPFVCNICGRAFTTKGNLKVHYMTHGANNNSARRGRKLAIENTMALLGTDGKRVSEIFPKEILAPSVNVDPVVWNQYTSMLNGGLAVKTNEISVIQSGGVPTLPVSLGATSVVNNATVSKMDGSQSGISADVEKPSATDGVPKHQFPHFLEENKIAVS"}
{"Sequence": "AGGATTTG", "E-score": 0.0493}
{"Sequence": "CGACGTAG", "E-score": -0.172}
{"Sequence": "GTATTCAA", "E-score": 0.277}
{"Sequence": "TTAGTGAA", "E-score": 0.179}
{"Sequence": "CGGCTATC", "E-score": -0.174}
{"data": "Mixed results", "Fmr1 C-terminal low-complexity region": "Fragile X messenger ribonucleoprotein 1, C-terminal low-complexity region (Fmr1, Mus musculus, UniProt P35922)"}
{"Substance": "GGGAGUUCUACAGUCCGACGAUCAAGUCCUGUGCUACACAUCGUAUGUACCGAAUCGGGUUUUUGGGAGGGAAAAAGGGAAAGUAUUAUGUUACGCCGUUCGGAUCUGCACUUUGGAAUUCUCGGGUGUCAAGG", "target": "Fmr1 C-terminal low-complexity region", "assay": "RNA Bind-n-Seq", "test system": "RNA, in vitro", "conditions": "200 nM, whole 134-nt RNA, ends assumed, with: 150 mM KCl", "scale": "relative to: input library, higher = stronger binding", "quantity": "log2 enrichment", "result": 0.504}
{"Substance": "PhoQ, residues 284 288 289 292 302 303 ALASRC", "target": "PhoP, residues 12 14 15 18 19 AGCRL (Escherichia coli, UniProt P23836)", "assay": "Sort-seq, measured: YFP reporter", "test system": "E. coli", "conditions": "PhoQ-PhoP variant library, with: 10 µM Mg2+", "scale": "relative to: high Mg2+ state, higher = stronger signaling", "quantity": "fold induction", "result": 7.39}
{"Substance": "GGGAGUUCUACAGUCCGACGAUCUGGCCCUGGUGGCAUGCGGGGAGGAAGAGGUGGCCUCAUGGAGCGUGGUGGUCCCGGUGGAAUGUUCAGAGGUGGCCGUGGUGGAGACAGUGGAAUUCUCGGGUGUCAAGG", "target": "Fmr1 C-terminal low-complexity region", "assay": "RNA Bind-n-Seq", "test system": "RNA, in vitro", "conditions": "200 nM, whole 134-nt RNA, ends assumed, with: 150 mM KCl", "scale": "relative to: input library, higher = stronger binding", "quantity": "log2 enrichment", "result": 0.237}
{"Substance": "GGGAGUUCUACAGUCCGACGAUCGUCCUGUGCUACACAUCGUAUGUACCGAAUCGGGUUUUUGGGUUUUUGGGUUUUUGGGAAAGUAUUAUGUUACGCCGUUCGGAUCUGCACUGGAAUUCUCGGGUGUCAAGG (7-deaza-guanosine replaces G)", "target": "Fmr1 C-terminal low-complexity region", "assay": "RNA Bind-n-Seq", "test system": "RNA, in vitro", "conditions": "200 nM, whole 134-nt RNA, ends assumed, with: 150 mM LiCl", "scale": "relative to: input library, higher = stronger binding", "quantity": "log2 enrichment", "result": -0.913}
{"Substance": "GGGAGUUCUACAGUCCGACGAUCAGUCCUGUGCUACACAUCGUAUGUACCGAAUCGGAAAAAAAGGAAAAAGGUUUUUGGAAAGUAUUAUGUUACGCCGUUCGGAUCUGCACUUGGAAUUCUCGGGUGUCAAGG (7-deaza-guanosine replaces G)", "target": "Fmr1 C-terminal low-complexity region", "assay": "RNA Bind-n-Seq", "test system": "RNA, in vitro", "conditions": "200 nM, whole 134-nt RNA, ends assumed, with: 150 mM LiCl", "scale": "relative to: input library, higher = stronger binding", "quantity": "log2 enrichment", "result": -3.12}
{"note": "Repeated from above (sample 1):"}
{"Modification": "2'F-ANA at 1 2 4 5 6 7 9 12 13 15", "mean fluorescence intensity": "63.4 a.u."}
